Published values gathered from unrelated publications.
Each numbered part is a random draw from the data of one study; scales do not carry over between parts. Substitutions count along the parent as printed.

Block 1 — method: universal PBM; form: double-stranded DNA, one strand shown; sample: in vitro; tested at: not given; direction: higher = stronger binding; quantity: E-score
Target: Sal-like protein 4, full length isoform B (SALL4, Homo sapiens, UniProt Q9UJQ4-2, residues 1-616)
Setting: 8-mer, flanks averaged, mean of replicates
Oligonucleotide = GCTATTCC; value = -0.146
Oligonucleotide = CAGGGCCC; value = -0.391
Oligonucleotide = GAAGGCCC; value = -0.285
Oligonucleotide = AAAGGGGG; value = -0.0886
Oligonucleotide = CACTCGGC; value = -0.109
Oligonucleotide = CGAAGGAA; value = -0.0324
Oligonucleotide = CGGGTATC; value = -0.0901
Oligonucleotide = CGACGTTA; value = 0.0871
Oligonucleotide = GTATGACA; value = 0.313
Oligonucleotide = ATTGAACA; value = 0.168
Oligonucleotide = ATCACCCC; value = -0.0141
Oligonucleotide = GACCTGTA; value = -0.0375
Oligonucleotide = GAAGCGAA; value = -0.086
Oligonucleotide = GAAATAAC; value = 0.176
Oligonucleotide = AGACCCGC; value = -0.277
Oligonucleotide = AGCGGTGG; value = -0.267
Oligonucleotide = GTGATCAC; value = -0.0936
Oligonucleotide = CCCAGCGA; value = -0.261
Oligonucleotide = CCACGATA; value = 0.0462
Oligonucleotide = GAACTAGA; value = 0.0694
Oligonucleotide = CGCGGGTA; value = -0.187
Oligonucleotide = ACTCTGAG; value = -0.166
Oligonucleotide = ATCCAGCC; value = -0.17

Block 2 — target: CCNF, cyclin fold, Cln2 fusion (human); method: yeast growth competition, sequencing; sample: yeast; setting: strong parent motif; reference: not given; direction: higher = stronger binding; quantity: normalised enrichment score
Parent: KIF20B docking peptide (human); KRAKRKLYTSEIS; partner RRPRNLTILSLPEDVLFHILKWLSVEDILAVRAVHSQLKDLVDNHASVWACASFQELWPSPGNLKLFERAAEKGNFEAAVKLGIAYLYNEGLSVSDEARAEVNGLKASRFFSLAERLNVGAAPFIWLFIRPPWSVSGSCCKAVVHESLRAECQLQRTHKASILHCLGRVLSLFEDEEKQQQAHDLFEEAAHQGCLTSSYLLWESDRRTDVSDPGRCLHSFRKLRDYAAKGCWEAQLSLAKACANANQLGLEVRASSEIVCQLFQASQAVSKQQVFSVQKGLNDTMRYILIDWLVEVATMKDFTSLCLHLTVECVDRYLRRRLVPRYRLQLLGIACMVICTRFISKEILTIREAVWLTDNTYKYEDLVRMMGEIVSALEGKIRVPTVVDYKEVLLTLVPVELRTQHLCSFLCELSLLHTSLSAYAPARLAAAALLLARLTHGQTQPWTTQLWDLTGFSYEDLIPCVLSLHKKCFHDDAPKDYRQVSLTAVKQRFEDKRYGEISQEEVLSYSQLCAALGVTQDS
Change = E11A; value = 1.3
Change = R2A; value = 1.88
Change = S13A; value = 1.65
Change = S10A; value = 1.05
Change = K6A; value = 1.09
Change = R5A; value = -0.213

Block 3 — method: RNA Bind-n-Seq; form: RNA; sample: in vitro; tested at: 365 nM; reference: no-protein control; direction: higher = stronger binding; quantity: RBNS enrichment (R)
Target: RNA binding protein fox-1 homolog 2, RRM domain, GST-SBP tag (RBFOX2, Homo sapiens, UniProt O43251-10, residues 100-194)
Setting: natural RNA segment, single round, ends assumed
Constant ends, left off below: GGGAGUUCUACAGUCCGACGAUC … UGGAAUUCUCGGGUGCCAA
Construct (chain): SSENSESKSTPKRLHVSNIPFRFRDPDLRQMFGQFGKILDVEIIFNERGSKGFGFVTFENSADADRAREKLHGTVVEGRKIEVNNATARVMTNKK
Oligonucleotide = CCCUUGCUGCCGCGGGCCAGGAACAGGAAUGUGUUGGUGCCUGAGACACCAAAUGGAAGAAGCACAUCAAGACUGUUCUCCUGCGGCCAACACUGGCCCGGAAGCCGCCC; value = 0.643
Oligonucleotide = AGCCUUUAGGAUAGGUGAAUAUGUAAAUCUUUUAUCACUUUCUCAAAUUCAAACUAAAGGGGAAAGAUCAAACCCCUUCCCUUCCUACCUGUUUUCUGAGCUGGCUGACU; value = 0.289
Oligonucleotide = AAAACUCAGAAGAGAUAGUAAUGCUCAGGACAGGAGCGGCAGCCCCAGAACAGGCCACUCAUUUAGAAUUCUAGUGUUUCAAAACACUUUUGUGUGUUGUAUGGUCAAUA; value = 0.557
Oligonucleotide = ACAUUAUAGUUGUAAAGCUCAAGUUAAAAUAAAAAUAAAAGUGAUAGGACUAAGUCACCUAUCCAAGAAAAAUGUGUUAGUCAUACUUCUUUGACAAAUAUCACAAAUGA; value = 0.494
Oligonucleotide = GCAGCCGCAGACGGUCUGGACACCGCCGCAGGGGUGGGGUGAGGCGUCCCCCACCCUGCGGGACAGUGAACUGUGCAUAAGUCAGCGGAGGGCGACGACCCUCGCCGCGG; value = 0.319
Oligonucleotide = GUUGAAGGAGGUGUUGGGUGUUUUUAAAUAUUUAGUUAAUAUAUUCCUCAUGGACAUAAAAUACAUUCUUAGUUAUUAUCAUUAUGUCAAACAAGAAUGGCAAGCCUAAG; value = 0.855
Oligonucleotide = CCCAAAUGGCUGGGCAAGGGUGACCUUGAUUCACACACCACAGCCUCCCCUUGAGUGAUGGAAGGUGCCACUCACCUAGGCCAAAGCCCACAUCCUCUUGGGGACUCAGA; value = 0.436
Oligonucleotide = GCUUAAGUGCUAAGUCAGGUGUGGAUCCACAGGAGGGUUCCAACAGAGUGUUUCCUCCACUGUAUACUGUCACAGACUAUCAUCAUUGCUUUGUGGCUGGUUUUGUUUUU; value = 0.447
Oligonucleotide = CUUGCUAUAACCGGAGAGCUUCAAAACUGACGUAUGAUGCAGCAGGGACUUCAUCACUGAGUACUGUGACAGUAUGUGUCAUCUCUGGGCCAAAGGACAAGCCAUUGAUC; value = 0.322
Oligonucleotide = GACCACAUCGGUGUAGCAUUGACCUCCGAGUUUUACCUGCUGUGUCUUCCCUGCUGUAGAGAUGUUCCUGUGCACCUGAGGAGCCUCCUGCCUGCCGUCCUUGCGUCCAC; value = 3.09
Oligonucleotide = GACAAGGUGAAAUGAUAAUUCGUGUCAAAUUAAUGUGAAAUUUUUUUCCUGCAUUGUAAUAUUAUGAGGCCUGAGUCGCAGUUGAGUUUGAAAUUUGUAUUUAAUUUCAC; value = 0.434
Oligonucleotide = GAAAAUUCACUGUAUCAUGAAACCCUAAGGGUUUGUUGCACUUCCUGCUUUUUAGGCCUGGAUAACAGUAUCACCAUCCUUAUUUACAGAAGGGUAAAACUGACUCUUAA; value = 0.39

Block 4 — target: NFE2L3, bZIP domain (human); method: DHFR protein complementation; sample: yeast; reference: wild-type JUN-FOS pair; direction: higher = stronger binding; quantity: binding fitness
Setting: single substitutions, most at no-binding floor
Parent: JUN, bZIP domain (human); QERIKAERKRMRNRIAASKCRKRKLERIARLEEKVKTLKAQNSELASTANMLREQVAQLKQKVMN; partner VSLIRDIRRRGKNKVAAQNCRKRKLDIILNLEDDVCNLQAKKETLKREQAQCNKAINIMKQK
Change = K39E; value = -1.39 natural log
Change = A57W; value = -1.42 natural log
Change = E32Q; value = -1.43 natural log
Change = L45S; value = -1.54 natural log
Change = A57R; value = -1.17 natural log
Change = Q55N; value = -1.62 natural log
Change = A46Y; value = -1.47 natural log
Change = N42Y; value = -1.57 natural log
Change = L52W; value = -1.4 natural log
Change = T37P; value = -1.45 natural log
Change = N42F; value = -1.61 natural log
Change = R30A; value = -1.37 natural log
Change = E54V; value = -1.59 natural log
Change = V35W; value = -1.34 natural log
Change = L31F; value = -1.53 natural log
Change = E33L; value = -1.47 natural log
Change = L31D; value = -1.56 natural log
Change = R30V; value = -1.35 natural log
Change = A46L; value = -1.47 natural log

Block 5 — method: protein-binding microarray; form: double-stranded DNA, one strand shown; sample: in vitro; tested at: 250 nM; setting: 60-bp whole probe; added: salmon DNA 0.4 mg/ml; reference: random background probes; direction: higher = stronger binding; quantity: log fluorescence; constant ends, left off below: GCCTAGCAC … GTCTTGATTCGCTTGACGCTGCTG
Target: Interferon regulatory factor 5, full length, phosphomimetic (IRF5, Homo sapiens, UniProt Q13568-2, residues 1-514, K96S/S451D/S453D/S456D/S462D)
Oligonucleotide = GATGGACTGGACTTTCGGGACGTGCTA; value = 4.33 z-score
Oligonucleotide = GACGGGCTGGGGTATCGGGACGTGCTA; value = -0.0925 z-score
Oligonucleotide = TTAGGTTTCCTACTGCCTTAGTGCTAG; value = 0.249 z-score
Oligonucleotide = TACGGTATCGGGTTTCGGGACGTGCTA; value = 4.41 z-score
Oligonucleotide = TTAGGACTGGACAATGGGTTAGTGCTA; value = -0.351 z-score
Oligonucleotide = GATGGTATCGACACTGGGGACGTGCTA; value = 2.13 z-score
Oligonucleotide = GACGGTTTCCTTCTCCTGTCGTGCTAG; value = 1.26 z-score
Oligonucleotide = TCAGGTTTCACTTTCCAACTGTGCTAG; value = 5.74 z-score
Oligonucleotide = TTAGGTAGCGACTATCGGTTAGTGCTA; value = 6.6 z-score
Oligonucleotide = TTCGAACTGAGACTGGATTAGTGCTAG; value = 0.173 z-score
Oligonucleotide = GACGGTCTCCTTATCCTGAAGTGCTAG; value = -0.0799 z-score
Oligonucleotide = GGCATTTTTTTTATCAATCAGTGCTAG; value = 0.5 z-score
Oligonucleotide = TGCTGGTTTTGTGGTCTAATGTGCTAG; value = -0.102 z-score
Oligonucleotide = TTAGGTATCGGACCGGGTTAGTGCTAG; value = 1.16 z-score
Oligonucleotide = GACGCTCTCGGACTGGGGACGTGCTAG; value = -0.554 z-score
Oligonucleotide = GACGGTCTCGGACTGAGGACGTGCTAG; value = -0.355 z-score
Oligonucleotide = TTAGGTTTCGACTATCGCTTAGTGCTA; value = 8.25 z-score
Oligonucleotide = CACTAGTTTCTTTTCTTTTCGTGCTAG; value = 2.83 z-score
Oligonucleotide = GCGCCTGTAGCCCCTCCAGGGTGCTAG; value = -0.843 z-score
Oligonucleotide = ACATTTTTTTCATTATTGTTGTGCTAG; value = 1.96 z-score

Block 6 — method: two-hybrid; reference: out of 4 tests; direction: higher = firmer interaction; quantity: positive tests
Partner: ARF1 538-665 (Arabidopsis thaliana, UniProt Q8L7G0)
B1: IAA32 (Arabidopsis thaliana, UniProt Q8RYC6); chain MDPNTPADFFKGSSKFHTYYSQTKKGGGVIDLGLSLRTIQHETYLPPARMIGLDGYGELIDWSQPSYNSITQLKSEDTGHQRLAQGYYNNEGESRGKYAYVKVNLDGLVVGRKVCLVDQGAYATLALQLNDMFGMQTVSGLRLFQTESEFSLVYRDREGIWRNVGDVPWKEFVESVDRMRIARRNDALLPF
B2: IAA33 (Arabidopsis thaliana, UniProt Q9FKM7); chain MNSFEPQSQDSLQRRFHQDNSTTQQPRDTTTPFIPKPASKNHNNSNSSSGAAGRSFQGFGLNVEDDLVSSVVPPVTVVLEGRSICQRISLDKHGSYQSLASALRQMFVDGADSTDDLDLSNAIPGHLIAYEDMENDLLLAGDLTWKDFVRVAKRIRILPVKGNTRQVKRNE
B3: IAA31 (Arabidopsis thaliana, UniProt Q8H174); chain MEVSNSCSSFSSSSVDSTKPSPSESSVNLSLSLTFPSTSPQREARQDWPPIKSRLRDTLKGRRLLRRGDDTSLFVKVYMEGVPIGRKLDLCVFSGYESLLENLSHMFDTSIICGNRDRKHHVLTYEDKDGDWMMVGDIPWDMFLETVRRLKITRPERY
B4: IAA34 (Arabidopsis thaliana, UniProt Q9C5X0); chain MYCSDPPHPLHLVASDKQQKDHKLILSWKKPTMDSDPLGVFPNSPKYHPYYSQTTEFGGVIDLGLSLRTIQHEIYHSSGQRYCSNEGYRRKWGYVKVTMDGLVVGRKVCVLDHGSYSTLAHQLEDMFGMQSVSGLRLFQMESEFCLVYRDEEGLWRNAGDVPWNEFIESVERLRITRRNDAVLPF
Residues (chain): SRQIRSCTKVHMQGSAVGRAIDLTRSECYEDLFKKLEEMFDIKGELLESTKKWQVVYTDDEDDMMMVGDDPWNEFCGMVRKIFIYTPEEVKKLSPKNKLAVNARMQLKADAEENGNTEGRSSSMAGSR
Molecule = B1 (IAA32); value = 0
Molecule = B2 (IAA33); value = 0
Molecule = B3 (IAA31); value = 2
Molecule = B4 (IAA34); value = 2

Block 7 — method: DHFR PCA, deep sequencing; sample: yeast; added: (+)-ABA 0.39 µM; reference: wild-type fitted maximum; direction: higher = stronger binding; quantity: relative binding score
Target: ABI1, truncated, D143A, DHFR fusion (Arabidopsis thaliana)
Setting: methotrexate growth selection, single substitutions
Parent: PYL1, truncated, DHFR fusion (Arabidopsis thaliana); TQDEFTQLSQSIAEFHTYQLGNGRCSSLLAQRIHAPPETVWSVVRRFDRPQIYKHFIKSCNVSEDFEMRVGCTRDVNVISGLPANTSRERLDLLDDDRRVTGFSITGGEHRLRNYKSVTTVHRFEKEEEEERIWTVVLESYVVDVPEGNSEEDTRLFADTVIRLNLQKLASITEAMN
Change = S87T; value = 37.2%
Change = R123Y; value = 2.97%
Change = V70H; value = 0.56%
Change = E152A; value = 33%
Change = A170I; value = -13.1%
Change = V136K; value = -14.2%
Change = R46A; value = 34.2%
Change = E147Y; value = 24.3%
Change = R32Q; value = 31.8%
Change = G102T; value = -7.44%
Change = C25F; value = -14.1%
Change = K116C; value = -2.94%
Change = Y141D; value = 1.97%
Change = H16I; value = -9.87%
Change = N22S; value = 52.1%

For quick reference, copied from above (block 6):
Molecule = B1 (IAA32); value = 0
Molecule = B2 (IAA33); value = 0
Molecule = B3 (IAA31); value = 2
Molecule = B4 (IAA34); value = 2
